Measured values pooled from the literature.
Parts stem from different laboratories: compare values within a part only. Positions count from the first letter of the parent shown.

Set 1
Target: Histone acetyltransferase KAT6A, both winged helices, GST fusion (KAT6A, Homo sapiens, UniProt Q92794, residues 1-181)
Technique: protein binding microarray
Form: double-stranded DNA, one strand shown
Medium: in vitro
Concentration: not given
Setting: 8-mer, flanks averaged, mean of 2 arrays, mostly near background
Reference: not given
Direction: higher = stronger binding
Target sequence (chain): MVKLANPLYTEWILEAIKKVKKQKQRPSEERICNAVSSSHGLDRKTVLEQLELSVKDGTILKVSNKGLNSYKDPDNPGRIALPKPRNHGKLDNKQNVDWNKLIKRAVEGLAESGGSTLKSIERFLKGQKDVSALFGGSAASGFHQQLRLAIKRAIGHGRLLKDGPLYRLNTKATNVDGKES
Sequence | E-score
ATCACAAA | -0.167
AGGGCGCC | 0.141
TATGCATA | -0.0846
ACGTACTG | -0.146
CATAGATG | -0.0849
TAGCGCAA | 0.277
CTTCGGTA | -0.0784
GGAAGGAA | -0.0855
GCTGATAC | -0.0512
ACCAACAA | -0.132
GGGTACCA | -0.163
GTAGGCAA | -0.264
AACCTATT | -0.0932
GGGGTACC | -0.0342
CGGGAGTA | 0.184
ATATGCGA | 0.154
ATAGAGGC | -0.0387
CAGTCAAC | -0.128
GGCTTCCA | 0.095
ACCGACAT | 0.0531
GTATCCAA | -0.038
CCATAAAA | 0.0294
AGACGCCG | 0.216
CGTGAGAA | 0.0697
ACCAGTTG | -0.132

Set 2
Target: Sal-like protein 4, full length isoform A (SALL4, Homo sapiens, UniProt Q9UJQ4, residues 1-1053)
Sequence of UniProt Q9UJQ4 (whole entry, looked up): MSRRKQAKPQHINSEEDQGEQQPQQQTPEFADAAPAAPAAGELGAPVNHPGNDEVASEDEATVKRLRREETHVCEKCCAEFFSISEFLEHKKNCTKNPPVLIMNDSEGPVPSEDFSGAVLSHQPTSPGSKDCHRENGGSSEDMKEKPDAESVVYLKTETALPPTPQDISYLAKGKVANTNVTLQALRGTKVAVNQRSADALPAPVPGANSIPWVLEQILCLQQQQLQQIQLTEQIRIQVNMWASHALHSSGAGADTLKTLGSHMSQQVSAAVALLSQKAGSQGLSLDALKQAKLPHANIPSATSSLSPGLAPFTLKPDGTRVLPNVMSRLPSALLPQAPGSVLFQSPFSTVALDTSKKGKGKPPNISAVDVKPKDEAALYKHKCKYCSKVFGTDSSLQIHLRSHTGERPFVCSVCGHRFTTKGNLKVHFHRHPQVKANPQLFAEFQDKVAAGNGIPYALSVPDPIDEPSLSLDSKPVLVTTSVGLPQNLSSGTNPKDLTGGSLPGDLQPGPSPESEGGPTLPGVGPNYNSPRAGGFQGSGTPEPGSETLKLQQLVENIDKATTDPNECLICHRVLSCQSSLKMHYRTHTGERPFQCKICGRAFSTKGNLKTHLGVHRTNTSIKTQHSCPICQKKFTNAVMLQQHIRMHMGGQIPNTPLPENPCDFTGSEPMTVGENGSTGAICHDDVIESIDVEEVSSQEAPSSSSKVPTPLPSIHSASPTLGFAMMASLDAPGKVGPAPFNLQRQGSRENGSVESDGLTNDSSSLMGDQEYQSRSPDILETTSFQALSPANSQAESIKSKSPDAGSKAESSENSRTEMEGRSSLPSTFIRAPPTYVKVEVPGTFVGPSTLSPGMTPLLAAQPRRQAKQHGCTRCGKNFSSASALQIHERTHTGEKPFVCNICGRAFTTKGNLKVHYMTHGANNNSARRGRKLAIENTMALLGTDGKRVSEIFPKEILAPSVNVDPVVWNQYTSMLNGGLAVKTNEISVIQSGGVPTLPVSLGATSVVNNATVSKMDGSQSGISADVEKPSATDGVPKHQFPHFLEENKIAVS
Technique: universal PBM
Form: double-stranded DNA, one strand shown
Medium: in vitro
Concentration: 600 nM
Setting: 8-mer, flanks averaged, mean of replicates
Direction: higher = stronger binding
Sequence | E-score
GTACCCGA | -0.262
ATATCCGC | 0.0559
AAGAGCGA | -0.144
CTCATAAG | 0.249
AACTTCCT | 0.0551
AGAATAGC | 0.0988
ACACTAGT | 0.018
GTTAACCA | 0.0919
CCGACTAA | -0.054
ACGACGAG | 0.00039
TACCATGA | 0.149
CCTGCATA | 0.1
CGCGGTCC | -0.399
ACAACTGC | -0.00713
GGTCAACA | 0.0198
ACAGCTCG | -0.168
AGTCCCCC | -0.319
CAACGCCA | -0.151

Set 3
Target: Ras GTPase-activating protein-binding protein 1, RRM domain (G3BP1, Homo sapiens, UniProt Q13283)
Sequence of UniProt Q13283 (whole entry, looked up): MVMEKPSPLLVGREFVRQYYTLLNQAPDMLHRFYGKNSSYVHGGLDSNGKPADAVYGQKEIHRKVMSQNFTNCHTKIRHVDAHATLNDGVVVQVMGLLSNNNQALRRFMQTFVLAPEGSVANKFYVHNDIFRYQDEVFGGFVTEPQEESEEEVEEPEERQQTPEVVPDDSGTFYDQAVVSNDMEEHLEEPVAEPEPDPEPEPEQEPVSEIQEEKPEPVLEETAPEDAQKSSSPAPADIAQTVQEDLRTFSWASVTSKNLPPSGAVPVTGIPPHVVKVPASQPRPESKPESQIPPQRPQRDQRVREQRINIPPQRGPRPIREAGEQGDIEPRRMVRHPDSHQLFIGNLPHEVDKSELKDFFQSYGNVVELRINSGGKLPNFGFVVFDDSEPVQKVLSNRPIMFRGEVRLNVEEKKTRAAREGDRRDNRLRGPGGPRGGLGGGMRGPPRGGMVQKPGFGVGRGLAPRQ
Technique: RNA Bind-n-Seq
Form: RNA
Medium: in vitro
Concentration: 1 µM
Setting: whole 134-nt RNA, ends assumed
Added: 150 mM KCl
Reference: input library
Direction: higher = stronger binding
Sequence | log2 enrichment
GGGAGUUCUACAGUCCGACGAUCUCAAGUCCUGUGCUACACAUCGUAUGUACCGAAUCGGUUUGGUUUGGGGUUUGGAAAGUAUUAUGUUACGCCGUUCGGAUCUGCACUUCCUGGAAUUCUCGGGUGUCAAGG | -0.204
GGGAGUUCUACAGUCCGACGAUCUGGGAGGUGGAAUUUGUUUAUUUUUUUAGCUCAUUUCCAGGGGUGGGAAUUUUUUUUUAAUAUGUGUCAUGAAUAAAGUUGUUUUUGAAAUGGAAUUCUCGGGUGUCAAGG | 1.36
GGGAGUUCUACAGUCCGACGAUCAGUCCUGUGCUACACAUCGUAUGUACCGAAUCGGAAAAAGGGAAAAAGGGGAAAAAGGAAAGUAUUAUGUUACGCCGUUCGGAUCUGCACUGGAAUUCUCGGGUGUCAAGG | 0.0121
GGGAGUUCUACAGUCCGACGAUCAGUCCUGUGCUACACAUCGUAUGUACCGAAUCAAAUUUAAAUUUUUAAACCCCCAAAAAAGUAUUAUGUUACGCCGUUCGGAUCUGCACUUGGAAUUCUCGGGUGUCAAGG | -1.27
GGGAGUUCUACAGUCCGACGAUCUGGGAGGUGGAUUUUGUUUAUUUUUUUAGCUCAUUUCCAGGGGUGGGAAUUUUUUUUUAAUAUGUGUCAUGAAUAAAGUUGAUUUUGAAAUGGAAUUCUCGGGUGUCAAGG | 2.05
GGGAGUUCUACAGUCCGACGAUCUCAAGUCCUGUGCUACACAUCGUAUGUACCGAAUCGGUUUGGGUUUGGUUUGGGGAAAGUAUUAUGUUACGCCGUUCGGAUCUGCACUUCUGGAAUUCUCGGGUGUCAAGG | -0.255
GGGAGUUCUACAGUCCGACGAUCCUCAAGUCCUGUGCUACACAUCGUAUGUACCGAAUCGGAGGUUUUUGGUUUGGAAAGUAUUAUGUUACGCCGUUCGGAUCUGCACUUCCAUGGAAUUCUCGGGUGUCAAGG | -0.367
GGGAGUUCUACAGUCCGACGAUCUUUUAGGAAGCUGCAGUAAAGGAAGAUGAAGAAGAAGUUUCAGAUAAGGGCAGUGAUUCUGAAGAAGAAGAAACCAAUAGAGAUUCCCAAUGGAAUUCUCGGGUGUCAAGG | -0.0262
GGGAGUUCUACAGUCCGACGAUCGUCCUGUGCUACACAUCGUAUGUACCGAAUCGGGGAAAGGGGAAAAAAAGGGGUGGGGAAAGUAUUAUGUUACGCCGUUCGGAUCUGCACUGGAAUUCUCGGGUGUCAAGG | 1.02
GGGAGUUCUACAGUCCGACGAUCGUCCUGUGCUACACAUCGUAUGUACCGAAUCGGGGAAAAAGGGAAAAAGGGGAAAAAGGAAAGUAUUAUGUUACGCCGUUCGGAUCUGCAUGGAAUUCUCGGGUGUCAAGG | -0.00268
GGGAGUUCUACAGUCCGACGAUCUAACUUUAGAGGAGGAUCUAAUGGAUAUGGCAGUGGACGUGGAUUUGGGGAUGGCUAUAAUGGGUAUGGAGGAGGACCUGGAGGUGGCAAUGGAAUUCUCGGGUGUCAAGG | -0.718
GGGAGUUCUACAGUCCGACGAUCAAGUCCUGUGCUACACAUCGUAUGUACCGAAUCGGGCCCCGGCCCCGGGGCCCCGGGAAAGUAUUAUGUUACGCCGUUCGGAUCUGCACUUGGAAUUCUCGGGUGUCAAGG | -0.658
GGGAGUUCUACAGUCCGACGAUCCAAGUCCUGUGCUACACAUCGUAUGUACCGAAUCGGGGAAAGGGAAAGGGAAAGGGAAAGUAUUAUGUUACGCCGUUCGGAUCUGCACUUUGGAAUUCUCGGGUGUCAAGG | 0.688
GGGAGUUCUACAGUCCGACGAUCACCAUGGAGGUGGGCAUCUUUGGGAAGUGGGGCAAGGGGGGGAUAGGGAGGGGGGUAACACUUUGGGAACAGGUGGUCCCAGGUCGUUUCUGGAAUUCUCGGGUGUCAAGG | -0.553

Set 4
Target: ABI1, truncated, D143A, DHFR fusion (Arabidopsis thaliana)
Technique: DHFR PCA, deep sequencing
Medium: yeast
Setting: methotrexate growth selection, single substitutions
Added: (+)-ABA 0.39 µM
Reference: wild-type fitted maximum
Direction: higher = stronger binding
Starting sequence: PYL1, truncated, DHFR fusion (Arabidopsis thaliana); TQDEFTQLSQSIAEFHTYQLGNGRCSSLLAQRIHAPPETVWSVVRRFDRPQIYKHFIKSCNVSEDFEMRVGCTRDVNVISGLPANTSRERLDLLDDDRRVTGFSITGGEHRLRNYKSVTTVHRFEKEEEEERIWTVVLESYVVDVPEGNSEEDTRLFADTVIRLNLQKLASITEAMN
Change | relative binding score [%]
P37G | -5.66
P83A | 25.2
F56S | -11.2
N177A | 67.8
R32T | 50.7
Q167H | 23.5
R24Q | 72.1
V121H | 14.2
G23D | 19.3
V121I | 20.1
R46W | -7.68
T160L | 17.8
R123I | -2.61
L166M | 0.794
R46F | -24.2
V78Q | -5.31

Set 5
Target: RNA binding protein fox-1 homolog 2, RRM domain, GST-SBP tag (RBFOX2, Homo sapiens, UniProt O43251-10, residues 100-194)
Technique: RNA Bind-n-Seq
Form: RNA
Medium: in vitro
Concentration: 365 nM
Setting: natural RNA segment, single round, ends assumed
Reference: no-protein control
Direction: higher = stronger binding
Construct (chain): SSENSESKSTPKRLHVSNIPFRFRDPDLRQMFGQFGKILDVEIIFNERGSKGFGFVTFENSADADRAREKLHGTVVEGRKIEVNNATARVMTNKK
Sequence | RBNS enrichment (R)
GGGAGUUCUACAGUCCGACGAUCAAGCUCAGGUUAAUACAAGCUGAUUGUUCAGUGUCUUAAGACUUAUGCUGUUUCCAAAAGGCCAAAUAAACCAGGAUUUUCUCUGGAUGCUUGGAGAAAGAAGAAACCCUUGGAAUUCUCGGGUGCCAA | 0.311
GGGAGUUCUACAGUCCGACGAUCCUCAGAUAAUUAAUUUGAAGCAAGAAAGAAGGUAAAAAUGAGGUUUCCCAGCCAUGUUGCUGCUUUUGGCAUGGUCGCUUCUCUGAGGUUCACCUAGGCUUUCACAGCAAUGGAAUUCUCGGGUGCCAA | 0.362
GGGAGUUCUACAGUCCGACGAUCCCAUCAAUAAAGAUGUCCAGGCAGUGAGCGUACUUUUUACACCCUGUAGAAUUGUGGGCUGUAGCGUUACUCUGAUUUUCUGUCUAGUAUCAGAGAAUGCUGGUAGCUUAUGGAAUUCUCGGGUGCCAA | 0.223
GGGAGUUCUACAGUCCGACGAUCGAGGUGCUCUUCAAAUCUCCCUUAGGGGCUGCAUACCUCCCCAGGUAAUCAAGCACGGAUCUUCUCAGCCAAGCCCAUUUCCUGCCCUGAGGUUUGGGAGUGGGAUAAGGUGGAAUUCUCGGGUGCCAA | 0.301
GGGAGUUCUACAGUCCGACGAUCCUGAGAAUUCCUGUUACAGUAAACAAAACUAACGUAAUCUACCAUUUCCUACACUAUUUGAGCAUGGAAAUCAUAGUCCCCACUCUGUGAAAACUUAACGCUUUUUGGAAUGGAAUUCUCGGGUGCCAA | 0.616
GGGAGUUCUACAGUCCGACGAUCGCACCUAGAAGGGACAGAGGGUGGGGCUACCUGCUAUCAGGCAUGAACAUGUGAAUUGCUGGUUAGUAGGUGGUAUGCCUUGGGCACAUGUCACAUCUAAAUGCUGCUGGUGGAAUUCUCGGGUGCCAA | 0.805
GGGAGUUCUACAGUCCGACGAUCCUUUGCUGGCUUGUGCAGUGAUACUGAGAAAAUACAUGAACAGAAACUGCCCAGGUGGAACAGCACGUAACCUAGUGAGUGACUGUACUCCUUUCUAGGAAUGCUGAUUCUGGAAUUCUCGGGUGCCAA | 0.745
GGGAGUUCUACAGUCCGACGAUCUCCUUUGGGCCUGAGGACCUGCAGAAGACCCAGUGCAGCCAGAGAAUGCCCACUGCCUGUAACAGCCACCUGGAGAACUUCAUAAAGAUGUCUCACAGCCCUGGGGACACUGGAAUUCUCGGGUGCCAA | 1.46
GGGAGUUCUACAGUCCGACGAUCUAUUGCCCCUGCUGAGGGGCUCCUGCCUAAGGAAGACAUGAUAUCCAGUAGACACAAGCAAGAAGACCACACUUCCCCCCGACACAGGAAAGCUGAGACAUUGUCCCCAAUGGAAUUCUCGGGUGCCAA | 0.361
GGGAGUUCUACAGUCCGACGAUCAUUUUUCCCAUAAGAAUUAUAAGCUGCAUUUCUAAGGCAUAGCUCCAAUUAUGAGAUAAAAUUUAUACUUUUUACUUUUCUAAAUUAAACACAAGAAAGAAUGCAAAAACUGGAAUUCUCGGGUGCCAA | 0.737
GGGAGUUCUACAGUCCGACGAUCGCCUGAGGUGGCGCAGGGCUCUCCUUCCUGUCCCUUCGAUCUCCUUGAGAAUUAAGAGCUGGCAGCUGCUGAUGGUGUUUCCCAACCCCCCUCACUUCCCAAGACAACCCUGGAAUUCUCGGGUGCCAA | 0.478
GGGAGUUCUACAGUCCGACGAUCAUGUAAACCAUGUGAGAGGGAAAUGUUAAUAAAAAAAUUGCAAAGCCUCAACAUUUGCACAAAACUCGCCCCAUGGUGUGGUUGUUUGUGUUCUCAGUAGUCCAGGAAAGUGGAAUUCUCGGGUGCCAA | 0.28
